Measurements gathered from unrelated publications.
A part holds a random share of what one study measured. Positions count from the first letter of the parent shown.

Study 1
Target: Prothrombin, mature alpha-thrombin (F2, Homo sapiens, UniProt P00734)
Technique: aptamer microarray, sandwich
Molecule type: DNA with 2'F-ANA
Sample: in vitro
Concentration: 200 nM
Notes: whole 15-mer aptamer, many near background
Together with: Cy3 exosite-II aptamer, 400 nM
Reading: higher = stronger binding
Strand: GGTTGGTGTGGTTGG
Modification | mean fluorescence intensity [a.u.]
2'F-ANA at 2 5 8 9 11 12 | 162
2'F-ANA at 1 2 3 12 13 14 15 | 95.1
2'F-ANA at 2 3 4 7 10 | 322
2'F-ANA at 9 15 | 551
2'F-ANA at 2 3 4 5 6 7 9 13 | 54.7
2'F-ANA at 2 3 4 6 7 8 12 13 14 | 313
2'F-ANA at 3 4 10 13 14 15 | 206
2'F-ANA at 2 5 6 7 8 9 10 11 12 15 | 75.4
2'F-ANA at 2 3 5 9 11 12 13 | 133
2'F-ANA at 1 2 4 5 8 11 12 | 95.5
2'F-ANA at 1 4 5 7 10 11 15 | 48.1
2'F-ANA at 1 2 5 11 13 14 15 | 46.6
2'F-ANA at 3 7 10 12 14 15 | 477
2'F-ANA at 1 2 4 5 6 7 9 11 13 | 51.1

Study 2
Target: ABI1, truncated, D143A, DHFR fusion (Arabidopsis thaliana)
Technique: DHFR PCA, deep sequencing
Sample: yeast
Notes: methotrexate growth selection, single substitutions
Together with: (+)-ABA 0.032 µM
Relative to: wild-type fitted maximum
Reading: higher = stronger binding
Starting sequence: PYL1, truncated, DHFR fusion (Arabidopsis thaliana); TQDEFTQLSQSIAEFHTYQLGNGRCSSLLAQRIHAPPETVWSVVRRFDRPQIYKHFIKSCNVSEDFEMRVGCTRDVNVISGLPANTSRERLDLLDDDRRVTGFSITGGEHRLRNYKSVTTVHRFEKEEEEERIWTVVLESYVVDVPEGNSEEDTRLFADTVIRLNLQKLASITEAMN; partner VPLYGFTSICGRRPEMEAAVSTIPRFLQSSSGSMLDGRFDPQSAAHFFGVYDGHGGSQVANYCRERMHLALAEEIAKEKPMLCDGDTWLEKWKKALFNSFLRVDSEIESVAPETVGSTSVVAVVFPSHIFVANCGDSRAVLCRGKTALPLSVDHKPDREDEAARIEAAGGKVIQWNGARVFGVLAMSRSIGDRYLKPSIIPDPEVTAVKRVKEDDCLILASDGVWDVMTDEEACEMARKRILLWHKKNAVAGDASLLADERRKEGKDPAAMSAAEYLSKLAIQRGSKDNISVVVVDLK
Substitution | relative binding score [%]
P83L | 2.28
R123L | 3.57
S42N | 21.6
F47C | -1.65
N177R | 16.1
C72A | 62
T106D | 1.14
E151G | 5.32
I162W | 6.08
R90W | -0.403
F103Y | 61.6
V40Y | -9.78
D144Y | 1.84
L82W | 49.2
T39K | 10.7
L156C | 13.3
R88S | 7.89

Study 3
Target: CREM, bZIP domain (human)
Technique: DHFR protein complementation
Sample: yeast
Notes: single substitutions, most at no-binding floor
Relative to: wild-type JUN-FOS pair
Reading: higher = stronger binding
Starting sequence: JUN, bZIP domain (human); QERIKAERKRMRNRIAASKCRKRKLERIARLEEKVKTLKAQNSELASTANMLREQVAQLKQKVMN; partner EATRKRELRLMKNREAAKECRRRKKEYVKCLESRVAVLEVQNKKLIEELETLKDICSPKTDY
Substitution | binding fitness [natural log]
R53A | -1.59
A29K | -1.44
M51W | -1.55
V56Q | -1.49
K36A | -1.39
T48F | -1.44
K34S | -1.49
K39D | -1.46
A46I | -1.3
K39V | -1.41
V35G | -1.53
A40R | -1.37

Other studies, line by line
Molecule | target | assay | system | conditions | how to read | quantity | value
PhoQ, residues 284 288 289 292 302 303 SLSLLA | PhoP, residues 12 14 15 18 19 IQSYL (Escherichia coli, UniProt P23836) | Sort-seq, measured: YFP reporter | E. coli | PhoQ-PhoP variant library, together with: 10 µM Mg2+ | relative to: high Mg2+ state, higher = stronger signaling | fold induction | 48

Repeated from above (study 2):
Substitution | relative binding score [%]
I162W | 6.08
R88S | 7.89
T39K | 10.7
V40Y | -9.78
R90W | -0.403
D144Y | 1.84
L156C | 13.3
